Experimental data gathered from unrelated publications.
Protocols differ between the studies behind these lines. ± gives the spread as reported.

SMILES | test | system | setting | measurement | result
CC[C@H](C)[C@H](NC(=O)[C@H](CCCCN)NC(=O)CNC(=O)[C@H](CC(C)C)NC(=O)[C@H](Cc1ccccc1)NC(=O)[C@H](CCCCN)NC(=O)[C@H](CO)NC(=O)[C@H](Cc1ccccc1)NC(=O)[C@H](Cc1c[nH]c2ccccc12)NC(=O)[C@H](CCC(N)=O)NC(=O)[C@@H](NC(=O)[C@H](Cc1ccccc1)NC(=O)CCCCCNC(=O)CN1CCN(CC(=O)O)CCN(CC(=O)O)CCN(CC(=O)O)CC1)C(C)C)C(=O)N[C@@H](CCC(=O)O)C(=O)N1CCC[C@H]1C(=O)N[C@H](CC(=O)O)C(=O)N[C@H](C(=O)N[C@@H](CO)C(=O)N[C@@H](CCC(N)=O)C(=O)N[C@H](C(=O)N[C@@H](CCC(N)=O)C(=O)N[C@@H](CC(=O)O)C(=O)N1CCC[C@H]1C(=O)N[C@@H](CC(N)=O)C(=O)N[C@@H](CC(=O)O)C(=O)N[C@@H](CCC(N)=O)C(=O)N[C@@H](Cc1ccc(O)cc1)C(=O)N[C@@H](CCC(=O)O)C(=O)N1CCC[C@H]1C(=O)N[C@@H](Cc1ccccc1)C(=O)O)C(C)C)C(C)C [copper-64 labelled] | – | C57BL/6 mice, male, MC-38 tumour-bearing, tumor | 2 h, checkpoint inhibitor-treated | tissue uptake | 2.22 ± 0.5 %ID/g
O=c1c(-c2cnn(-c3ccc(Cl)cc3)c2)c(C(F)(F)F)oc2c(O)c(O)ccc12 | – | mouse | intraperitoneal, 100 mg/kg, 24 h, DMSO vehicle | trough concentration | 90 nM
CCC1=C(C)C2=C(c3ccc(P(=NC4=[O+][Ru-]([Cl])[n+]5ccccc54)(c4ccccc4)c4ccccc4)cc3)c3c(C)c(CC)c(C)n3[B-](C)(C)[N+]2=C1C.Cc1ccc(C(C)C)cc1.[Cl-] | – | DMSO-d6 solution | – | stability time | ≥ 2.5 weeks
CC(C)NCCCn1c(Sc2cc3c(cc2I)OCO3)nc2c(N)ncnc21 | – | cancer patients, tumour biopsy | intravenous, single dose above 180 mg/m^2, 24 h | tumour concentration | > 5 µM
O=C1NC2(CC2)COc2ncc(F)cc2[C@H]2COCCN2c2ccn3ncc1c3n2 | – | Sprague-Dawley rat, female, spleen | oral, 20 mg/kg/day, 4 weeks dosing, end of recovery | organ-to-brain weight ratio | 38.2 ± 2.61%
CN1Cc2cc(Cl)ccc2-n2c(nnc2C2CCN(c3cccc([18F])n3)CC2)C1 | – | C57BL/6 mouse male, small intestine | intravenous, 3.7 MBq, 1 min | tissue uptake | 5.18 ± 2.12 %ID/g
C=C/C=C/C[C@@H](C)[C@@H](O)[C@H]1C(=O)N[C@@H](CC)C(=O)N(C)CC(=O)N(C)[C@@H](CC(C)C)C(=O)N[C@@H](C(C)C)C(=O)N(C)[C@@H](CC(C)C)C(=O)N[C@@H](C)C(=O)N[C@H](C)C(=O)N(C)[C@@H](CC(C)C)C(=O)N(C)[C@@H](CC(C)C)C(=O)N(C)[C@@H](C(C)C)C(=O)N1C | – | Wistar Kyoto rat, male, plasma | ip, 0.5 mg/kg/day, day 28, at sacrifice | plasma K+ level | 4.6 ± 0.3 mmol/L
CN[C@@H](C)C(=O)N[C@H](C(=O)N1C[C@@H](NC(=O)CCCCOCc2cn(CCNC(=O)CN(Cc3cccs3)C(=O)[C@H](NS(=O)(=O)c3cc4ccc(O)nc4cc3Cl)c3ccccc3OC)nn2)C[C@H]1C(=O)N[C@@H]1CCCc2ccccc21)C1CCCCC1 | fast-gradient HPLC | – | pH 7.4 | logD | 2.6
CC(C)C[C@H](NC(=O)[C@H](Cc1ccccc1)NC(=O)CNC(=O)CNC(=O)[C@@H](N)Cc1ccc(O)cc1)C(=O)N[C@@H](CSCB(O)O)C(N)=O | RP-HPLC | PBS | concentration not given, 24 h, pH 7.4, together with: NADH 100 µM | peptide remaining intact | 49%
CC(C)[C@@H]1NC(=O)CNC(=O)[C@H](CC(N)=O)NC(=O)[C@H](CCCNC(=N)N)NC(=O)[C@H](Cc2ccc(O)cc2)NC(=O)[C@H](C(C)C)NC(=O)[C@@H](NC(=O)[C@@H](NC(=O)[C@H](CC(N)=O)NC(=O)[C@H](Cc2c[nH]c3ccccc23)NC(=O)[C@H](C)NC(=O)[C@H](Cc2ccccc2)NC(=O)CNC(=O)[C@H](CCCCN)NC(=O)[C@H](Cc2ccccc2)NC(=O)[C@H](Cc2ccccc2)NC(=O)[C@H](CCCCN)NC(=O)OCC2c3ccccc3-c3ccccc32)C(C)C)CSSC[C@@H](C(=O)N[C@@H](Cc2c[nH]cn2)C(=O)N[C@@H](CCCNC(=N)N)C(=O)N[C@@H](CCCNC(=N)N)C(=O)N[C@@H](C)C(=O)N[C@@H](CC(N)=O)C(N)=O)NC(=O)[C@H](C(C)C)NC(=O)[C@H](CCCNC(=N)N)NC1=O | – | ICR mouse, blood | intramammary, 10 mg/kg, day 5, 3 d dosing | basophils | 1.66 ± 0.29%
CC(C)C[C@@H]1NC(=O)[C@H](C)NC(=O)[C@H]([C@@H](C)O)NC(=O)[C@H](CCC(=O)O)NC(=O)[C@@H]2CCCN2C(=O)[C@H](C)NC(=O)[C@H](CCCCN)NC(=O)[C@@H]2CSSC[C@@H](C(=O)N[C@@H](Cc3c[nH]cn3)C(N)=O)NC(=O)[C@H](C)NC(=O)[C@H](C)NC(=O)[C@H](C)NC(=O)[C@H](CSSC[C@H](N)C(=O)N[C@@H](CC(N)=O)C(=O)N2)NC1=O | HPLC-UV | bovine BBB model | 200 µM, 2 h | Papp apical to basolateral | 26 ± 3 nm/s
CC(C)C[C@@H](NC(=O)[C@@H](CCCCN)NC(=O)CNC(=O)CNC(=O)[C@@H]1CSSC[C@H](N)C(=O)NCC(=O)N[C@@H](CCCNC(=N)N)C(=O)N[C@@H](CCCNC(=N)N)C(=O)N[C@@H](C)C(=O)NCC(=O)NCC(=O)N[C@@H](CO)C(=O)N1)C(=O)N[C@H](C)C(=O)N[C@H](CCCCN)C(=O)N[C@H](CC(C)C)C(=O)N[C@H](C)C(=O)N[C@H](CCCCN)C(=O)N[C@H](CCCCN)C(=O)N[C@H](CC(C)C)C(=O)N[C@H](C)C(=O)N[C@H](CCCCN)C(=O)N[C@H](CC(C)C)C(=O)N[C@H](C)C(=O)N[C@H](CCCCN)C(=O)O | – | mouse, plasma | intravenous, 15 mg/kg | Vd | 0.0062 L
COc1ccc([C@@H]2CC(=O)c3c(O)cc(O[C@@H]4O[C@H](CO)[C@@H](O)[C@H](O)[C@H]4O[C@@H]4O[C@@H](C)[C@H](O)[C@@H](O)[C@H]4O)cc3O2)cc1O | – | male Sprague-Dawley rats, lean, urine | oral, 100 mg/kg, 48 h | cumulative urinary excretion | 27.3 ± 10.2 ng

Some of these lines once more:
SMILES | test | system | setting | measurement | result
CCC1=C(C)C2=C(c3ccc(P(=NC4=[O+][Ru-]([Cl])[n+]5ccccc54)(c4ccccc4)c4ccccc4)cc3)c3c(C)c(CC)c(C)n3[B-](C)(C)[N+]2=C1C.Cc1ccc(C(C)C)cc1.[Cl-] | – | DMSO-d6 solution | – | stability time | ≥ 2.5 weeks
CC(C)NCCCn1c(Sc2cc3c(cc2I)OCO3)nc2c(N)ncnc21 | – | cancer patients, tumour biopsy | intravenous, single dose above 180 mg/m^2, 24 h | tumour concentration | > 5 µM
